Measured values of several laboratories.
Compare with care: the assays were run in different laboratories. “And” joins repeats or separate records; there may be more than shown.
Target: Calcium/calmodulin-dependent protein kinase type IV (CAMK4, Homo sapiens, UniProt Q16566)
Residues used in one study (Q16566 1-473): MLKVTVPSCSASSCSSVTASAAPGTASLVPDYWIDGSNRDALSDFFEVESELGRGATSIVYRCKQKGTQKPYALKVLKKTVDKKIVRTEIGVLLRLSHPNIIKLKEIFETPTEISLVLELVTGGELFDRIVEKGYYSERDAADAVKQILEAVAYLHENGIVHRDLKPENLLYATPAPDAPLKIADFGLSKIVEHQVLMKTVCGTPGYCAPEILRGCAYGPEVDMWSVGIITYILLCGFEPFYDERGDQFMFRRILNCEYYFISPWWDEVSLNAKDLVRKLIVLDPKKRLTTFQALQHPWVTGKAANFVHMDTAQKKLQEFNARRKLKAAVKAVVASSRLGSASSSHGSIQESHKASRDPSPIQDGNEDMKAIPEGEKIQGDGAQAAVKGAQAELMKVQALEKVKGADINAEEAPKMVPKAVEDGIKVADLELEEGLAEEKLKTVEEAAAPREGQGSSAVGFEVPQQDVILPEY

`COc1cc(Nc2nccc(-c3cnn4nc(OC)ccc34)n2)cc(C(F)(F)F)c1` has a remaining binding of 100% (binding, competition with immobilised ligand; 1 µM).
`CNC1C[S+]2CC[S+]3CC[S+](C1)[Ru-4]321([N]=C=S)[n]2c3ccc(OC)cc3c3c4c(c5cc(F)c[n+]1c5c32)C(=O)NC4=O` (stereo not shown) gave a remaining binding of 15% (KinomeScan; 0.1 µM; baseline: untreated).
`Cc1nc2c(F)cc(-c3nc(Nc4ccc(CNC(=O)CCCCCCC(=O)NO)cc4)ncc3F)cc2n1C(C)C` has an inhibition of 65% (enzyme activity, inhibitor; 1 µM).
`CNC(=O)C1CCN(c2cc(C)c(F)cc2NC(=O)c2ccc(-c3cc(O)ccc3C)c(C)c2)CC1` gave a remaining binding of 100% (binding, competition with immobilised ligand; 1 µM).
Under “activity vs control”, `O=C(Cc1ccc(OCc2ccccc2)cc1)NC1(C(=O)O)CCN(C(=O)c2ccc(-c3cccc(Cl)c3)cc2)CC1` is recorded as 120% (enzyme activity, inhibitor; 10 µM).
With `Nc1ncc(-c2cc(-c3cnn(CC(F)(F)F)c3)ncc2F)nc1C(=O)NC1CNCC(F)C1` (stereo not shown) the remaining activity was 98.3% (enzyme activity; 1 µM; baseline: DMSO control).
`COCC12C(=O)NC3C4(C(OC)CC1O)C1CC5(O)C(OC)C(O)C(OC(C)=O)(C1C5OC(=O)c1ccccc1)C3(O)C(OC)C24` (stereo not shown) has a remaining activity of 108% and 105% (kinase activity, inhibitor, ProQinase kinase profiling; 25 µM; baseline: control).
The remaining activity of `COc1ccc(NC(=O)Nc2ccc3c(c2)C(=O)N(C(C)CO)CC(C)C(CN(C)Cc2ccc4c(c2)OCO4)O3)cc1` (stereo not shown) is reported as 108% (kinase activity, KinaseProfiler; 0.03 µM, species human; baseline: control).
With `C=CC(=O)Nc1cccc(-c2cnc3[nH]cc(C(=O)NC(C)(C)C)c3n2)c1` the inhibition was 2% and 0% (kinase activity; 0.1 µM).
The inhibition of `CCn1cc(C(=O)O)c(=O)c2c(N)c(F)c(NC3CCCCC3)cc21` is reported as 6.5% (kinase activity; 0.1 µM, together with: ATP at Km).
The inhibition of `Cc1cccc(O[C@H]2CCC[C@@H](C(C)CNCc3ccncc3)C2)c1` (relative stereo) is reported as -5% (enzyme activity, inhibitor; 10 µM).
`CCN1CCN(Cc2ccc(C(=O)Nc3ccc(C)c(NCc4cnc5[nH]ccc5c4OC)c3)cc2C(F)(F)F)CC1` gave a remaining binding of 100% (binding, competition with immobilised ligand; 1 µM).
`C=CC(=O)N1CCc2ccc(-n3c(=O)ccc4cnc5ccc(-c6cnn(C)c6)cc5c43)cc21` has a remaining binding of 100% (KINOMEscan; 1 µM; baseline: DMSO control).
With `Cc1ccc(-c2c(/C=C(\C#N)C(=O)NC(C)C)n(CCCO)c3ncnc(N)c23)cc1` the remaining binding was 100% (cell-free assay, competition with immobilised ligand; 1 µM).
With `NC(=O)C[C@H]1CCc2sc3ncnc(O[C@H]4CC[C@H](N5CCOCC5)CC4)c3c21` the inhibition was 2% (enzyme activity, inhibitor; 10 µM).
`CNC(=O)C[C@H](Cc1ccc(C#N)cc1)NC(=O)c1cc(-c2ccc(CN[C@H](C)c3ccc(C)cc3)o2)ccc1Cl` — result for “activity vs control”: 112% (enzyme activity, inhibitor; 1 µM).

Some of these lines once more:
`Cc1nc2c(F)cc(-c3nc(Nc4ccc(CNC(=O)CCCCCCC(=O)NO)cc4)ncc3F)cc2n1C(C)C` has an inhibition of 65% (enzyme activity, inhibitor; 1 µM).
`CNC(=O)C1CCN(c2cc(C)c(F)cc2NC(=O)c2ccc(-c3cc(O)ccc3C)c(C)c2)CC1` gave a remaining binding of 100% (binding, competition with immobilised ligand; 1 µM).
